Experimental data gathered from unrelated publications.
Numbered parts are unrelated; each lists some results of a single study.
UniProt P78368, sequence (whole entry, looked up): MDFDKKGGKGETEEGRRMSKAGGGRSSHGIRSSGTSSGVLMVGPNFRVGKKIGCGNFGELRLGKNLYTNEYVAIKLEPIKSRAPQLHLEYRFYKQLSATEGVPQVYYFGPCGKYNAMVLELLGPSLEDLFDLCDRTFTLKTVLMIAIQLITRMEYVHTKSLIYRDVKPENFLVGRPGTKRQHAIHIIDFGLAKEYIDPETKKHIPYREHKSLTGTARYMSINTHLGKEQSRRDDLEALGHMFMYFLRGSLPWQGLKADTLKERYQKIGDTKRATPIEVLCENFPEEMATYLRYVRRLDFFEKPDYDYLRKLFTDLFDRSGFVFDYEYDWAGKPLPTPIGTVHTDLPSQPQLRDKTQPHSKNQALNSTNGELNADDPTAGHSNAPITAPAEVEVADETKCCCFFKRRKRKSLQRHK
UniProt P21917, sequence (whole entry, looked up): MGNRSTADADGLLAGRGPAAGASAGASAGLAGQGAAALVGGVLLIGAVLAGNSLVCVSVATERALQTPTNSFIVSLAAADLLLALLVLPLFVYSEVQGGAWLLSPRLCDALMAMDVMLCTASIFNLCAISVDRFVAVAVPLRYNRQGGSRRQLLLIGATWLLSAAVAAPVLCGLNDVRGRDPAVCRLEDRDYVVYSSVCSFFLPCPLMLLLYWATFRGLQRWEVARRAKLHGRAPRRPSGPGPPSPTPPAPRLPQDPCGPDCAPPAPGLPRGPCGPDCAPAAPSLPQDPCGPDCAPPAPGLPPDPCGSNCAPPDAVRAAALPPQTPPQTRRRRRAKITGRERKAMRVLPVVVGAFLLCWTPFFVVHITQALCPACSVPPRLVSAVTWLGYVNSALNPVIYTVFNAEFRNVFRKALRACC
UniProt P53355, sequence (whole entry, looked up): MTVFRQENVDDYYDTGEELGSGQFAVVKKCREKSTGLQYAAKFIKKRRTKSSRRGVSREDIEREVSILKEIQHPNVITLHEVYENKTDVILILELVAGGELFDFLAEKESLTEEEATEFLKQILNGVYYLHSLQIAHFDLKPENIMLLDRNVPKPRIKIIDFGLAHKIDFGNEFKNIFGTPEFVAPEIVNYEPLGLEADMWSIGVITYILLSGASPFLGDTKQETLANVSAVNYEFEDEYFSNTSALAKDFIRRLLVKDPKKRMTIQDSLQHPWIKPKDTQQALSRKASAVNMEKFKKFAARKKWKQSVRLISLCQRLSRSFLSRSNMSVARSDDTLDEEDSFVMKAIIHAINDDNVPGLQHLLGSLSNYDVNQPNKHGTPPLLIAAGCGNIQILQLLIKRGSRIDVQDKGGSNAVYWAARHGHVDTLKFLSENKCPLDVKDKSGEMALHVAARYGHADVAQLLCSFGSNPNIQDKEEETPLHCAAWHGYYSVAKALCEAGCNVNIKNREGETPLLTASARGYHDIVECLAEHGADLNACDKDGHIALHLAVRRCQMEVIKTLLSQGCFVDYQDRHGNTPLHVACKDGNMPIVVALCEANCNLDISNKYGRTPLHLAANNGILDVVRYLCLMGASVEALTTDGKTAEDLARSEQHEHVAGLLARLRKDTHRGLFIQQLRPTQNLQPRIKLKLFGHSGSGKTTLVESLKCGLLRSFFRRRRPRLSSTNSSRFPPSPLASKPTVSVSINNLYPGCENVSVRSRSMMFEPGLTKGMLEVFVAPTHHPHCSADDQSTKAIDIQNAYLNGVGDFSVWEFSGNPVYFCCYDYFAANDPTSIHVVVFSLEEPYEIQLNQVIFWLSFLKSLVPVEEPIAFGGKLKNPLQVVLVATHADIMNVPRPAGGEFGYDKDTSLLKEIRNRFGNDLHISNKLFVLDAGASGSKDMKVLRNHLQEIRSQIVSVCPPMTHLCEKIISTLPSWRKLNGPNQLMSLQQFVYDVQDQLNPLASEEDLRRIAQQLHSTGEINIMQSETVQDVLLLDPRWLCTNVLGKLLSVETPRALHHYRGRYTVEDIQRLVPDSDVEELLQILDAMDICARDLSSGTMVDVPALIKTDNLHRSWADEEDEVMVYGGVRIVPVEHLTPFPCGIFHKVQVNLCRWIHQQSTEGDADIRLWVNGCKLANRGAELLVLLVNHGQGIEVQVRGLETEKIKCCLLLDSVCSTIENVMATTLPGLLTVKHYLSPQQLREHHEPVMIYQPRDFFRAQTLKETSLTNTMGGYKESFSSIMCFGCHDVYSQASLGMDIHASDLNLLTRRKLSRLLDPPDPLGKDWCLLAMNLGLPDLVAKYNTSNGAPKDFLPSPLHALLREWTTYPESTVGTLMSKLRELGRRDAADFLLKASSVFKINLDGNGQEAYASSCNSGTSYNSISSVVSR
UniProt P45984, sequence (whole entry, looked up): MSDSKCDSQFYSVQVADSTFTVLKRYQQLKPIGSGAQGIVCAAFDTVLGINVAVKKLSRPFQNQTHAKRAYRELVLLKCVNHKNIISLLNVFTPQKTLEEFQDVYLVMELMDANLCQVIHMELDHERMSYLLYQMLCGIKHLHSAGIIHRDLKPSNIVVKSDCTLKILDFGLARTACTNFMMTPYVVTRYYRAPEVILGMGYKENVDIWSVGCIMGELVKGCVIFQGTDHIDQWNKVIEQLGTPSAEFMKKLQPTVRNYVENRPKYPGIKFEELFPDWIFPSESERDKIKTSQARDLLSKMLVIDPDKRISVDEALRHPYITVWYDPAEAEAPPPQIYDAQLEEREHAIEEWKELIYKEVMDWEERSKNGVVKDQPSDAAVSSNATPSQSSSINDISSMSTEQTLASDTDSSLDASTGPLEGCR
UniProt Q00535, sequence (whole entry, looked up): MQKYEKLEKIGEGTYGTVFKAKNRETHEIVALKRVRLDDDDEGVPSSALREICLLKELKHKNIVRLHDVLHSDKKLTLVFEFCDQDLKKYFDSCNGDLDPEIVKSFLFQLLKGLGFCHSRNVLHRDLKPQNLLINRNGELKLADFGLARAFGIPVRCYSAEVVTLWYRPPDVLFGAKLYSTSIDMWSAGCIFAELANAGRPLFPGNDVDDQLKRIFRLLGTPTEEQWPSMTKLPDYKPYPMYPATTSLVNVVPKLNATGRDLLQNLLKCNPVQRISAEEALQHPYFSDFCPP
UniProt Q15831, sequence (whole entry, looked up): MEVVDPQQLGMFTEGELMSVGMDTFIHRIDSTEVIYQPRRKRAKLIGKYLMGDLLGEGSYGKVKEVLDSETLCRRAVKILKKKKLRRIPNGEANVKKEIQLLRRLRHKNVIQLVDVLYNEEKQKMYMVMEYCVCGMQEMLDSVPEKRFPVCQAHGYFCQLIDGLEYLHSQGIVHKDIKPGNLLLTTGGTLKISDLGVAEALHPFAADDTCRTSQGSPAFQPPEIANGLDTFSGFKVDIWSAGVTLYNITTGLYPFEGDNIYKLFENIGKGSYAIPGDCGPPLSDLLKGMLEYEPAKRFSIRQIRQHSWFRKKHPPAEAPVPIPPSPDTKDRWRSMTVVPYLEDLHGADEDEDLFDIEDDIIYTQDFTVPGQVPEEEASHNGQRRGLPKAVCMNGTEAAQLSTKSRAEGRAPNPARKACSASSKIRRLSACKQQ
UniProt Q96PN8, sequence (whole entry, looked up): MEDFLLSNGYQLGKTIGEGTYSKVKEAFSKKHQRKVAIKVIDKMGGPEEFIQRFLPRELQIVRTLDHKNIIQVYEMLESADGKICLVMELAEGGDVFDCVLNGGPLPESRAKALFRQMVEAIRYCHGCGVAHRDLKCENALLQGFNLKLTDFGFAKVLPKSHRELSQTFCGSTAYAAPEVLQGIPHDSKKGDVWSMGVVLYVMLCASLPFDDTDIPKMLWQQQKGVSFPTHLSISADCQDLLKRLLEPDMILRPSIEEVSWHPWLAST
UniProt P11802, sequence (whole entry, looked up): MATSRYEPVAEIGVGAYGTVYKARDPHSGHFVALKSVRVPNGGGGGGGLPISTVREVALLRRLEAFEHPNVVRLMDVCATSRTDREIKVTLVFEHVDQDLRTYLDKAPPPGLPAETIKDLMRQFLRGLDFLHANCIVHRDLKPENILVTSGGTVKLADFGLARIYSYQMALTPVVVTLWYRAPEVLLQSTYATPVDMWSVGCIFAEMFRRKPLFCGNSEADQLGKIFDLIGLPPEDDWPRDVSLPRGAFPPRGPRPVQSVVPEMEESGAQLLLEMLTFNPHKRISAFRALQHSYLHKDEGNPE

Sample 1
Compound: CCC(=O)N[C@@H]1CC[C@H](C(=O)N(C)c2ccc(-c3nc4ccccc4o3)cc2)C1
Effect on: cell-free assay
Technique: competition with immobilised ligand
Concentration: 1 µM
Measurement: remaining binding
Serine/threonine-protein kinase BRSK2 (BRSK2, Homo sapiens, UniProt Q8IWQ3): 76%
Testis-specific serine/threonine-protein kinase 3 (TSSK3, Homo sapiens, UniProt Q96PN8): 97%
Receptor-interacting serine/threonine-protein kinase 1 (RIPK1, Homo sapiens, UniProt Q13546): 100%
Casein kinase I isoform gamma-2 (CSNK1G2, Homo sapiens, UniProt P78368): 100%
Death-associated protein kinase 1 (DAPK1, Homo sapiens, UniProt P53355): 100%
Dual specificity mitogen-activated protein kinase kinase 2 (MAP2K2, Homo sapiens, UniProt P36507): 100%

Sample 2
SMILES: Cc1cc(Nc2cc(N3CCN(C)CC3)nc(Sc3ccc(NC(=O)C4CC4)cc3)n2)[nH]n1
Effect on: enzyme activity
Mode: inhibitor
Concentration: 0.5 µM
Relative to: control
Measurement: remaining activity
Mitogen-activated protein kinase 9 (MAPK9, Homo sapiens, UniProt P45984): 108%
Serine/threonine-protein kinase STK11 (STK11, Homo sapiens, UniProt Q15831): 102%
Protein kinase C beta type, isoform beta-I (PRKCB, Homo sapiens, UniProt P05771): 81.1%
Mitogen-activated protein kinase kinase kinase 3 (MAP3K3, Homo sapiens, UniProt Q99759): 113%
Inhibitor of nuclear factor kappa-B kinase subunit beta (IKBKB, Homo sapiens, UniProt O14920): 84.9%
Cyclin-dependent kinase 4, with cyclin D1 (CDK4, Homo sapiens, UniProt P11802): 97.4%
TGF-beta receptor type-1 (TGFBR1, Homo sapiens, UniProt P36897): 94.7%
Inhibitor of nuclear factor kappa-B kinase subunit epsilon (IKBKE, Homo sapiens, UniProt Q14164): 84.8%
Cyclin-dependent kinase 5, with p25 (CDK5, Homo sapiens, UniProt Q00535): 93.8%
STE20/SPS1-related proline-alanine-rich protein kinase (STK39, Homo sapiens, UniProt Q9UEW8): 94.9%
Serine/threonine-protein kinase Chk2 (CHEK2, Homo sapiens, UniProt O96017): 100%

Sample 3
SMILES: COc1ccc2[nH]c3c4[nH]c5ccc(OC)cc5c4c4c(c3c2c1)C(=O)NC4=O
Effect on: binding
Concentration: 1 µM
Measurement: remaining binding
Serine/threonine-protein kinase 17B (STK17B, Homo sapiens, UniProt O94768): 2.2%
LIM domain kinase 1 (LIMK1, Homo sapiens, UniProt P53667); competition with immobilised ligand: 91%
Mitogen-activated protein kinase 15 (MAPK15, Homo sapiens, UniProt Q8TD08); competition with immobilised ligand: 58%
Receptor-type tyrosine-protein kinase FLT3 (FLT3, Homo sapiens, UniProt P36888); competition with immobilised ligand: 28%
Serine/threonine-protein kinase 25 (STK25, Homo sapiens, UniProt O00506); competition with immobilised ligand: 89%

Sample 4
SMILES: CCN(c1nc(N)c(C(=O)N=C(N)N)nc1Cl)C(C)C
Effect on: β-arrestin recruitment
Mode: agonist
Technique: PRESTO-Tango
Concentration: 10 µM
Relative to: untreated
Measurement: fold over basal
Vasopressin V1a receptor (AVPR1A, Homo sapiens, UniProt P37288): 1.31
D(3) dopamine receptor (DRD3, Homo sapiens, UniProt P35462): 1.84
G-protein coupled receptor 37-like 1 (GPR37L1, Homo sapiens, UniProt O60883): 0.83
D(4) dopamine receptor (DRD4, Homo sapiens, UniProt P21917): 0.96
Muscarinic acetylcholine receptor M3 (CHRM3, Homo sapiens, UniProt P20309): 0.58
Sphingosine 1-phosphate receptor 2 (S1PR2, Homo sapiens, UniProt O95136): 0.21
Sphingosine 1-phosphate receptor 3 (S1PR3, Homo sapiens, UniProt Q99500): 0.96

Excerpt of the above (sample 2):
Serine/threonine-protein kinase STK11 (STK11, Homo sapiens, UniProt Q15831): 102%
Protein kinase C beta type, isoform beta-I (PRKCB, Homo sapiens, UniProt P05771): 81.1%
Mitogen-activated protein kinase kinase kinase 3 (MAP3K3, Homo sapiens, UniProt Q99759): 113%
